Literature values as cited in several papers.
Compare with care: the assays were run in different laboratories.
Sequence of UniProt Q16513 (whole entry, looked up): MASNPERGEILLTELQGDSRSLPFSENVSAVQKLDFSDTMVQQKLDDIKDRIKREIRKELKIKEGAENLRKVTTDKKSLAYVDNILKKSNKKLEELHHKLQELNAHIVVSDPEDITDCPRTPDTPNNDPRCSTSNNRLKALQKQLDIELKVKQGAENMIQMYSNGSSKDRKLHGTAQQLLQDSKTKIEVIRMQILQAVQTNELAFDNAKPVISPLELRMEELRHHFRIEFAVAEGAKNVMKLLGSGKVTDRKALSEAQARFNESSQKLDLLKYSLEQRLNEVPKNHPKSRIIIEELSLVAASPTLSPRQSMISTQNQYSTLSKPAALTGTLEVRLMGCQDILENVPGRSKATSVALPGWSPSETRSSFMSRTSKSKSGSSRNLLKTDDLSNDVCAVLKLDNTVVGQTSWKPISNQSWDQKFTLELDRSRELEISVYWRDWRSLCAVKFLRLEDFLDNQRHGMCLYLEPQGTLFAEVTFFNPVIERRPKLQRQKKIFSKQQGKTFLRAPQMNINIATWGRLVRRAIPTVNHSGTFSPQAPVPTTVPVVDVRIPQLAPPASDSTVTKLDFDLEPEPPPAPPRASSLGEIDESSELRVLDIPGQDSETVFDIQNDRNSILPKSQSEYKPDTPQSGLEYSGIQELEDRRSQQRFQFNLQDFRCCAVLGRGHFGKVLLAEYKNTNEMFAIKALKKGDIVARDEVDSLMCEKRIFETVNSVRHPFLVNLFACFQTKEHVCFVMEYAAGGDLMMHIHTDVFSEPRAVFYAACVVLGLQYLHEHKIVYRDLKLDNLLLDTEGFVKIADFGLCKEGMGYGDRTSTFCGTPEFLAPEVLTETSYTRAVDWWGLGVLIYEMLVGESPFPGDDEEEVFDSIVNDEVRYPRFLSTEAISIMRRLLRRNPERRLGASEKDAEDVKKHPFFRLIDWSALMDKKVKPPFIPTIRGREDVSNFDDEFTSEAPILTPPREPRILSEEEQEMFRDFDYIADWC

| SMILES | tested on | assay | test system | conditions | how to read | measurement | result |
| --- | --- | --- | --- | --- | --- | --- | --- |
| O=C(c1cccnc1-c1ccncc1)N1CCC(O)(Cc2ccccc2)CC1 | – | – | human, urine | oral, 300 mg single dose | reference: dose | unchanged drug excreted in urine | 0.1% |
| Cc1cc(C)c(CNC(=O)c2cc(Cl)c3c(c2C)O[C@@](C)([C@H]2CC[C@H](N(C)C)CC2)O3)c(=O)[nH]1 | – | – | human | dose not given, mass balance | reference: dose | unchanged drug in faeces | 64.9% |
| COC(=O)N[C@@H](C)CNc1nccc(-c2cn(C(C)C)nc2-c2cc(Cl)cc(NS(C)(=O)=O)c2F)n1 | – | – | human, feces | dose not given | – | unchanged drug excreted | 5% |
| Cc1nc(NC(=O)N2CCC[C@H]2C(N)=O)sc1-c1ccnc(C(C)(C)C(F)(F)F)c1 | – | – | human, urine | oral, 400 mg, time not given, radiolabelled, fasted | reference: dose | unchanged drug recovered | 2% |
| Cn1c(=O)oc2ccc(-c3ccc(C[C@@H](C#N)NC(=O)[C@@H]4CNCCCO4)cc3)cc21 | – | – | human, urine | dose not given, steady state | reference: dose | unchanged renal excretion | ~20% |
| COc1cc(N2CCC(N3CCN(C)CC3)CC2)ccc1Nc1ncc(Cl)c(Nc2ccccc2P(C)(C)=O)n1 | – | – | human, urine | oral, 180 mg | reference: radioactivity | unchanged compound excreted | 86% |
| Nc1cc(C(F)(F)F)c(-c2nc(N3CCOCC3)nc(N3CCOCC3)n2)cn1 | PKN2 (Homo sapiens, UniProt Q16513) | enzyme activity | – | 10 µM | reference: untreated | remaining activity | 100% |
| CO[C@]1(C(=O)N[C@@H](C)c2ccc(-n3cc(F)cn3)nc2)CC[C@H](c2nc(C)cc(Nc3cc(C)[nH]n3)n2)CC1 | – | – | healthy human, urine and feces | dose not given, time not given | reference: dose | unchanged drug recovered | ~70.9% |
| CC1=NN(c2ccc(C)c(C)c2)C(=O)/C1=N\Nc1cccc(-c2cccc(C(=O)O)c2)c1O | – | – | human | dose not given | reference: oral dose | unchanged drug in feces | 20% |

Repeated from above:
| SMILES | tested on | assay | test system | conditions | how to read | measurement | result |
| --- | --- | --- | --- | --- | --- | --- | --- |
| Cn1c(=O)oc2ccc(-c3ccc(C[C@@H](C#N)NC(=O)[C@@H]4CNCCCO4)cc3)cc21 | – | – | human, urine | dose not given, steady state | reference: dose | unchanged renal excretion | ~20% |
